Measured values collected from several papers.
Lines come from different studies, so protocols differ. Several values in a cell are separate wells, animals, samples, runs or records. Numbers after ± are the reported error.

CC(C)C[C@@H]1NC(=O)[C@H](CCCNC(=N)N)NC(=O)[C@@H]2CCCN2C(=O)[C@@H]2CSSC[C@H](NC(=O)CNC(=O)[C@@H]3CCCN3C(=O)[C@H](CCCCN)NC(=O)[C@H](CC(=O)O)NC(=O)[C@@H](NC(=O)CN)C(C)C)C(=O)N[C@@H](CCCNC(=N)N)C(=O)N[C@@H](Cc3ccc(O)cc3)C(=O)N[C@@H](CC(C)C)C(=O)N[C@@H](Cc3ccccc3)C(=O)NCC(=O)NCC(=O)N[C@H]3CSSC[C@H](NC(=O)CNC1=O)C(=O)N[C@@H](CCCCN)C(=O)NCC(=O)N[C@@H](CCCCN)C(=O)NCC(=O)N[C@@H](Cc1c[nH]cn1)C(=O)N[C@@H](CC(=O)O)C(=O)N[C@@H](Cc1ccc(O)cc1)C(=O)N[C@H](C(=O)N[C@@H](C)C(=O)N[C@@H](Cc1c[nH]c4ccccc14)C(=O)N[C@@H](CC(=O)O)C(=O)NCC(=O)N[C@H](C(=O)N[C@@H](Cc1ccccc1)C(=O)N[C@@H](CO)C(=O)N[C@@H](CC(=O)O)C(=O)O)[C@@H](C)O)CSSC[C@H](NC(=O)[C@H](CC(=O)O)NC(=O)[C@H](CC(=O)O)NC(=O)[C@H](CC(=O)O)NC(=O)[C@H](CO)NC(=O)[C@H](CCCCN)NC3=O)C(=O)N2  Hill slope (SCN10A (Homo sapiens, UniProt Q9Y5Y9); channel current enhancement, activator): 1.5 ± 0.1
CCC1(CC)Cc2ccccc2-c2nc(NCCO)[nH]c(=O)c21  IC50 ratio (Serum paraoxonase/arylesterase 1 (Pon1, Mus musculus, UniProt P52430); enzyme activity, inhibitor; 15% mouse serum, together with: paraoxon; baseline: mouse serum over purified PON1): 30 fold
CC(C)C[C@H](NC(=O)OCc1ccccc1)C(=O)N[C@@H](C[C@@H]1CCNC1=O)C(O)S(=O)(=O)O (stereo partly shown)  k2 (Replicase polyprotein 1ab, main protease (rep, Severe acute respiratory syndrome-related coronavirus, UniProt P0C6X7); SARS coronavirus): 0.87 s⁻¹
Cc1cc(/C=C/C#N)cc(C)c1-n1cnc2cnc(Nc3ccc(C#N)cc3)nc21  EC50 (HIV-1; viral replication, single-round infection; RT mutant L234I): 0.1 ± 0.04 nM
CSCC[C@H](NC(=O)[C@H](CCN)NC(=O)[C@@H](NC(=O)[C@H](Cc1c[nH]c2ccccc12)NC(=O)[C@H](CCCNC(=N)N)NC(=O)[C@@H](N)CCNc1ccc([N+](=O)[O-])cc1[N+](=O)[O-])[C@@H](C)O)C(=O)N[C@@H](CC(C)C)C(N)=O  inhibition (Botulinum neurotoxin type F (F, Clostridium botulinum, UniProt A7GBG3); enzyme activity, inhibitor; concentration not given): 0%
CCCCCCCCCCCCCCCC(=O)N[C@@H](CCC(=O)NCCOCCOCCC(=O)NCCOCCOCCC(=O)NCCCC[C@H](NC(=O)[C@H](CC(=O)O)NC(=O)[C@H](CC(C)C)NC(=O)[C@H](Cc1ccc(O)cc1)NC(=O)[C@H](CCCCN)NC(=O)[C@H](CO)NC(=O)[C@H](Cc1ccc(O)cc1)NC(=O)[C@H](CC(=O)O)NC(=O)[C@H](CO)NC(=O)[C@@H](NC(=O)[C@H](Cc1ccccc1)NC(=O)[C@@H](NC(=O)CNC(=O)[C@H](CCC(N)=O)NC(=O)[C@@H](CO)NC(=O)[C@@H](N)Cc1c[nH]cn1)[C@@H](C)O)[C@@H](C)O)C(=O)N[C@@H](CCCNC(=N)N)C(=O)N[C@@H](CCCNC(=N)N)C(=O)N[C@@H](C)C(=O)N[C@@H](CCC(N)=O)C(=O)N[C@@H](CC(=O)O)C(=O)N[C@@H](Cc1ccccc1)C(=O)N[C@H](C(=O)N[C@@H](CCC(N)=O)C(=O)N[C@@H](Cc1c[nH]c2ccccc12)C(=O)N[C@@H](CC(C)C)C(=O)N[C@@H](CC(C)C)C(=O)N[C@@H](CC(N)=O)C(=O)N[C@H](C(=O)NCC(=O)NCC(=O)N1CCC[C@H]1C(=O)N[C@@H](CO)C(=O)N[C@@H](CO)C(=O)NCC(=O)N[C@@H](C)C(=O)N1CCC[C@H]1C(=O)N1CCC[C@H]1C(=O)N1CCC[C@H]1C(=O)N[C@@H](CO)C(N)=O)[C@@H](C)O)C(C)C)C(=O)O  urea (rhesus monkey, female; subcutaneous, 300 µg/kg once daily, 28 days): 4.88 ± 1.37 mmol/L
O=c1c(OP(=O)(O)O)c(-c2ccc(OP(=O)(O)O)c(OP(=O)(O)O)c2)oc2cc(OP(=O)(O)O)cc(OP(=O)(O)O)c12  inhibition (Spike glycoprotein, receptor-binding domain (MERS-CoV, UniProt K9N5Q8); spike protein activity; concentration not given): inhibited
O=[N+]([O-])c1cccc(O[C@H]2O[C@H](CO)[C@H](O)[C@H](O)[C@H]2O)c1  log IC50 (ctxB (Vibrio cholerae, UniProt P01556); binding): -2.72
CNC(C)C1C(O)CC2(C)C3CCC4C(C)(C)C(NC)CCC45CC35CCC12C (stereo not shown)  kon (Spike glycoprotein (Severe acute respiratory syndrome coronavirus 2, UniProt P0DTC2); binding, BLI): 776 M⁻¹ s⁻¹
CC[C@H](C)[C@H](NC(=O)[C@H](CCCN)NC(=O)[C@H](CC(=O)O)NC(=O)[C@H](CC(C)C)NC(=O)C(C)(CC(C)C)NC(=O)[C@@H](NC(=O)[C@H](CO)NC(=O)[C@H](Cc1ccc(O)cc1)NC(=O)[C@H](CC(=O)O)NC(=O)[C@H](CO)NC(=O)[C@@H](NC(=O)[C@H](Cc1ccccc1)NC(=O)[C@@H](NC(=O)CNC(=O)[C@H](CCC(=O)O)NC(=O)C(C)(C)NC(=O)[C@@H](N)Cc1ccc(O)cc1)[C@@H](C)O)[C@@H](C)CC)[C@@H](C)CC)C(=O)N[C@@H](Cc1c[nH]cn1)C(=O)N[C@@H](CCC(N)=O)C(=O)NC(C)(C)C(=O)N[C@@H](CC(=O)O)C(=O)N[C@@H](Cc1ccccc1)C(=O)N[C@H](C(=O)N[C@@H](CCC(=O)O)C(=O)N[C@@H](Cc1ccc(O)cc1)C(=O)N[C@@H](CCCCNC(=O)COCCOCCNC(=O)COCCOCCNC(=O)CC[C@H](NC(=O)CCCCCCCCCCCCCCCCCCC(=O)O)C(=O)O)C(=O)N[C@@H](CC(C)C)C(=O)N[C@@H](CCC(=O)O)C(=O)NCC(=O)NCC(=O)N1CCC[C@H]1C(=O)N[C@@H](CO)C(=O)N[C@@H](CO)C(=O)NCC(=O)N[C@@H](C)C(=O)N1CCC[C@H]1C(=O)N1CCC[C@H]1C(=O)N1CCC[C@H]1C(=O)N[C@@H](CO)C(N)=O)C(C)C (stereo partly shown)  relative potency (Gastric inhibitory polypeptide receptor (Mus musculus, UniProt Q0P543); cAMP accumulation, agonist; HEK293; baseline: human GIP, fold less potent): ~30 fold
Cc1ccc(OCCN(C)C)cc1C(=O)N[C@H](C)c1cc(-c2cccnc2N2CCCC2)nc2ccccc12  GFP/mCherry signal ratio (Replicase polyprotein 1ab, papain-like protease (rep, Severe acute respiratory syndrome coronavirus 2, UniProt P0DTD1); reporter gene, cell-based): 55.2 and 0 and 45.9 and 66.3 and 10.2
CC[C@H](C)[C@H](NC(=O)[C@H](CCCCN)NC(=O)[C@H](CCCCN)NC(=O)[C@H](CC(C)C)NC(=O)[C@H](Cc1c[nH]c2ccccc12)NC(=O)CN)C(=O)NCC(=O)N[C@@H](CCCCN)C(=O)N[C@@H](CCCCN)C(=O)N[C@H](C(=O)N[C@@H](CCC(=O)O)C(=O)N[C@@H](CCCNC(=N)N)C(=O)N[C@H](C(=O)NCC(=O)N[C@@H](CCC(N)=O)C(=O)N[C@@H](Cc1c[nH]cn1)C(=O)N[C@H](C(=O)N[C@@H](CCCNC(=N)N)C(=O)N[C@@H](CC(=O)O)C(=O)N[C@@H](C)C(=O)N[C@H](C(=O)N[C@H](C(=O)N[C@@H](CCC(N)=O)C(=O)N[C@H](C(=O)N[C@H](C(=O)NCC(=O)N[C@H](C(=O)N[C@@H](C)C(=O)N[C@@H](CCC(N)=O)C(=O)N[C@@H](CCC(N)=O)C(=O)N[C@@H](C)C(=O)N[C@@H](C)C(=O)N[C@@H](CC(N)=O)C(=O)N[C@H](C(=O)N[C@@H](C)C(=O)N[C@@H](C)C(=O)N[C@H](C(=O)N[C@@H](CC(C)C)C(=O)N[C@@H](CCCCN)C(N)=O)[C@@H](C)O)C(C)C)C(C)C)[C@@H](C)CC)[C@@H](C)O)[C@@H](C)CC)[C@@H](C)O)[C@@H](C)O)C(C)C)[C@@H](C)CC  MIC (Staphylococcus aureus; broth microdilution; ATCC 33592, CAMHB): > 1020 µg/mL
CC(=O)N[C@@H](Cc1cn([C@@H]2O[C@H](CO)[C@H](O)[C@H](O)[C@H]2O)nn1)C(N)=O  inhibition potency (ctxB, pentamer (Vibrio cholerae, UniProt P01556); concentration not given; baseline: galactose): 15 fold
